# Experimental data gathered from unrelated publications.
# Protocols differ between the studies behind these lines. Values joined by “and” are separate records of one study, mostly repeats; a detail may differ.
Compound,target,effect on,method,item,concentration,reference,remaining binding
CNC1C[S+]2CC[S+]3CC[S+](C1)[Ru-4]321([N]=C=S)[n]2c3ccc(OC)cc3c3c4c(c5cc(F)c[n+]1c5c32)C(=O)NC4=O (stereo not drawn),"Tyrosine-protein kinase ABL1, phosphorylated (ABL1, Homo sapiens, UniProt P00519, F317L)",,KinomeScan,,0.1 µM,untreated,100%
Cc1cnc2nc1Nc1cccc(c1)COC/C=C/COCc1cc(ccc1OCCN1CCOCC1)N2,"ABL1 (Homo sapiens, UniProt P00519, T315I)",,,,0.1 µM,DMSO control,74% and 100%
Nc1ncc2c(n1)-c1c([nH]c3ccc(C4=CCOCC4)cc13)CCC2,"Tyrosine-protein kinase ABL1, phosphorylated (ABL1, Homo sapiens, UniProt P00519)",binding,competition with immobilised ligand,,1 µM,,100%
CNC(=O)C1CCN(c2cc(C)c(F)cc2NC(=O)c2ccc(-c3cc(O)ccc3C)c(C)c2)CC1,"Tyrosine-protein kinase ABL1, phosphorylated (ABL1, Homo sapiens, UniProt P00519, M351T)",binding,competition with immobilised ligand,,1 µM,,17%
CC(C)=CC1OC(C)(C)C2C=C3C(=O)C(Cl)=CC(O)C3C3C(O)C4OC4C(=O)C132 (stereo not drawn),"Tyrosine-protein kinase ABL1, non-phosphorylated (ABL1, Homo sapiens, UniProt P00519, T315I)",cell-free assay,competition with immobilised ligand,,10 µM,,87%
CCN1CCN(Cc2ccc(C(=O)Nc3ccc(C)c(NCc4cnc5[nH]ccc5c4OC)c3)cc2C(F)(F)F)CC1,"Tyrosine-protein kinase ABL1, non-phosphorylated (ABL1, Homo sapiens, UniProt P00519, F317I)",binding,competition with immobilised ligand,,1 µM,,2.4%
COc1cc(Nc2nccc(-c3cnn4nc(OC)ccc34)n2)cc(C(F)(F)F)c1,"Tyrosine-protein kinase ABL1, phosphorylated (ABL1, Homo sapiens, UniProt P00519, T315I)",binding,,,1 µM,,100%
Cc1ccc(-c2c(/C=C(\C#N)C(=O)NC(C)C)n(CCCO)c3ncnc(N)c23)cc1,"Tyrosine-protein kinase ABL1, phosphorylated (ABL1, Homo sapiens, UniProt P00519, Y253F)",binding,competition with immobilised ligand,,1 µM,,100%
C=CC(=O)N1CCc2ccc(-n3c(=O)ccc4cnc5ccc(-c6cnn(C)c6)cc5c43)cc21,"Tyrosine-protein kinase ABL1, non-phosphorylated (ABL1, Homo sapiens, UniProt P00519, H396P)",,KINOMEscan,(H396P)-nonphosphorylated,1 µM,control,83%

# For quick reference, copied from above:
Compound,target,effect on,method,item,concentration,reference,remaining binding
Nc1ncc2c(n1)-c1c([nH]c3ccc(C4=CCOCC4)cc13)CCC2,"Tyrosine-protein kinase ABL1, phosphorylated (ABL1, Homo sapiens, UniProt P00519)",binding,competition with immobilised ligand,,1 µM,,100%
